# Published values of several laboratories.
# Numbered parts are unrelated; each lists some results of a single study. Changes are numbered by the printed parent chain.

# Study 1
# Target: CCND2, cyclin fold, Cln2 fusion (human)
# Technique: yeast growth competition, sequencing
# Medium: yeast
# Setting: weak parent motif
# Baseline: not given
# Direction: higher = stronger binding
# Starting sequence: WEE1 docking peptide (human); HKTFRKLRLFDTP; partner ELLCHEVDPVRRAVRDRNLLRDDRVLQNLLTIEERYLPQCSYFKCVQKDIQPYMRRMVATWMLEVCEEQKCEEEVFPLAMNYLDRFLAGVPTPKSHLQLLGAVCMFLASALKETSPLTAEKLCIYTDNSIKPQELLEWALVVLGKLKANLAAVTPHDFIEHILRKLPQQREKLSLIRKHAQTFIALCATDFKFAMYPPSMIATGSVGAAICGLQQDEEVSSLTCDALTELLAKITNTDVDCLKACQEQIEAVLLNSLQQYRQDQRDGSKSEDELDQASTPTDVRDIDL
Variant,normalised enrichment score
HKTFDKLRLFDTP [R5D],0.149
HKTPRKLRLFDTP [F4P],0.115
HKTFRKLNLFDTP [R8N],0.0161
HKTFRKLFLFDTP [R8F],-0.386
HKTFRKLRLFDDP [T12D],0.364
HATFRKLRLFDTP [K2A],0.136
HKTFRKLRLKDTP [F10K],-0.0886
HKTFRKLYLFDTP [R8Y],0.572
HKTFRKLRLFLTP [D11L],0.57
HKTFRKLRNFDTP [L9N],-0.14
HKTFRKLRLFDTC [P13C],0.561
HKTFRKLRLGDTP [F10G],-0.35
HKTFFKLRLFDTP [R5F],-0.116
HKTFRKLRLSDTP [F10S],-0.128
HKTGRKLRLFDTP [F4G],-0.08
HKTFRKLRLTDTP [F10T],0.319
MKTFRKLRLFDTP [H1M],0.0431
HKTFRKWRLFDTP [L7W],-0.169
HKTFRKQRLFDTP [L7Q],0.492
HKTFRKLRLFDKP [T12K],-0.115
HNTFRKLRLFDTP [K2N],0.161
HKTFRKLRLFDMP [T12M],0.0718
HKTFRKLRLFATP [D11A],-0.0233
HKTFRKLRLCDTP [F10C],0.0765
WKTFRKLRLFDTP [H1W],0.154

# Study 2
# Target: Prothrombin, mature alpha-thrombin (F2, Homo sapiens, UniProt P00734)
# Technique: aptamer microarray, sandwich
# Molecule type: DNA with 2'F-ANA
# Medium: in vitro
# Concentration: 200 nM
# Setting: whole 15-mer aptamer, many near background
# With: Cy3 exosite-II aptamer, 400 nM
# Direction: higher = stronger binding
# Sequence: GGTTGGTGTGGTTGG
Modification,mean fluorescence intensity [a.u.]
2'F-ANA at 1 3 4 6 7 9 10 11 12 13,65
2'F-ANA at 2 5 7 8 14,43.7
2'F-ANA at 2 3 5 6 8 9 10 11 12,58.7
2'F-ANA at 1 3 4 7 11 12 13 15,255
2'F-ANA at 2 7 8 10 11 12 13,167
2'F-ANA at 1 7 8 11 12 15,356
2'F-ANA at 1 2 4 5 6 7 9 10 11 12 14 15,59.4
2'F-ANA at 1 3 4 6 7 8 10 11 15,61.3
2'F-ANA at 1 4 6 11 15,89.1
2'F-ANA at 4 5 13 15,48.6
2'F-ANA at 2 5 6 8 9 13 15,81.8
2'F-ANA at 1 3 5 6 11 12 13,81.7
2'F-ANA at 4 6 7 8 9 14 15,84.1
2'F-ANA at 1 4 5 6 7 8 10 11 12,47.8
2'F-ANA at 5 6 7 8 9 12,184
2'F-ANA at 1 4 7 8 12 15,419
2'F-ANA at 2 3 5 7 8 10 12,62.9
2'F-ANA at 1 2 4 6 7 9 10 12 13 14 15,45.6
2'F-ANA at 3 5 6 7 8 11,113
2'F-ANA at 1 6 8 9 10 11 14 15,51.8
2'F-ANA at 1 4 5 7 8 10 13 15,48
2'F-ANA at 1 2 3 10 11 13,57.8
2'F-ANA at 2 4 7 8 9 11 13,226
2'F-ANA at 1 3 4 5 6 7 8 10 13,46.1

# Study 3
# Target: Interferon regulatory factor 7, full length, phosphomimetic (IRF7, Homo sapiens, UniProt Q92985, residues 1-503, S101K/S471D/S472D/S475D/S476D/S477D/S483D/S484D/S487D)
# Sequence of UniProt Q92985 (whole entry, unmodified, looked up): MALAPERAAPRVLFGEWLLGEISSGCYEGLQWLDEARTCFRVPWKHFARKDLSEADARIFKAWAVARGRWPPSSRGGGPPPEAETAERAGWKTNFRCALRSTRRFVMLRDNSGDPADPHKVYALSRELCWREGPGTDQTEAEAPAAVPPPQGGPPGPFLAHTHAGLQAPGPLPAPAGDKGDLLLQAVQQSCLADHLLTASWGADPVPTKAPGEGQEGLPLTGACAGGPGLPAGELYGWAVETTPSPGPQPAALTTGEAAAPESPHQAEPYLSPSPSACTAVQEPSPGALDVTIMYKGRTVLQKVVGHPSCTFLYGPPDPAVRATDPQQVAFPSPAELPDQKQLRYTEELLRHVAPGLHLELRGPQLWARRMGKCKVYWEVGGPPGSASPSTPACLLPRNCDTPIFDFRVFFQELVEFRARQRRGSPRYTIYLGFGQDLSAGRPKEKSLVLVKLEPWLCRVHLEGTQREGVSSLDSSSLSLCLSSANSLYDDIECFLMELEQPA
# Technique: protein-binding microarray
# Molecule type: double-stranded DNA, one strand shown
# Medium: in vitro
# Concentration: 250 nM
# Setting: 60-bp whole probe
# With: salmon DNA 0.4 mg/ml
# Baseline: random background probes
# Direction: higher = stronger binding
# Constant ends, left off below: GCCTAGCAC … GTCTTGATTCGCTTGACGCTGCTG
Sequence,log fluorescence
TTAGGTATCGGGACTGGGTTAGTGCTA,-0.138 z-score
TCATCTTTCCTCACCATACTGTGCTAG,1.97 z-score
TTTGATATCGGGTTTCGATTAGTGCTA,6.47 z-score
GACGATATCGGTATCGGGACGTGCTAG,0.181 z-score
TCAGGACTGGGTATCGGTTAGTGCTAG,0.428 z-score
GCCCCTTTCCTTTGCCTCTGGTGCTAG,2.05 z-score
TTAGATATCAGTCTCTATTAGTGCTAG,0.416 z-score
TTAGGTATCCTTCTCTTTTAGTGCTAG,0.637 z-score
TTAGGTCTCCTACTGCTGTAGTGCTAG,-0.444 z-score
GACGATTTCAGTTTCGGGACGTGCTAG,3.87 z-score
GACGGACTGGGGTATCGGCACGTGCTA,-0.952 z-score
GACGGTATTCTACTGCTGACGTGCTAG,-0.183 z-score
TTAGGACTGGACTTTTGGTTAGTGCTA,-0.532 z-score
TTAGGTTTCGTTTCCCTTTAGTGCTAG,13.7 z-score
TTAGGTATCGGTATCGGTGAGTGCTAG,1.44 z-score
TTTTATATCTTATCCTATCAGTGCTAG,1.01 z-score
TTAGGTTTCCATTTCCTTTAGTGCTAG,8.27 z-score
TCTAATATTCATTTTATTCAGTGCTAG,0.829 z-score
GACGGACTGGGGACTTGGGACGTGCTA,-0.478 z-score
CTTGAACCTGGGAGGTGGAGGTGCTAG,-0.648 z-score
GACGGGATCGGGTATCGGGACGTGCTA,-0.168 z-score
GACGGACTGGGGTTACGGGACGTGCTA,-0.774 z-score
GGTCTTCTGGACTGTTTGGTCGTGCTA,-0.244 z-score
GGGGTTAGGGTCATTCATTCGTGCTAG,-0.506 z-score
GACGATCTCGGTCTCGAGACGTGCTAG,0.468 z-score

# Study 4
# Target: Histone acetyltransferase KAT6A, both winged helices, GST fusion (KAT6A, Homo sapiens, UniProt Q92794, residues 1-181)
# Technique: protein binding microarray
# Molecule type: double-stranded DNA, one strand shown
# Medium: in vitro
# Concentration: not given
# Setting: 8-mer, flanks averaged, mean of 2 arrays, mostly near background
# Baseline: not given
# Direction: higher = stronger binding
# Target sequence (chain): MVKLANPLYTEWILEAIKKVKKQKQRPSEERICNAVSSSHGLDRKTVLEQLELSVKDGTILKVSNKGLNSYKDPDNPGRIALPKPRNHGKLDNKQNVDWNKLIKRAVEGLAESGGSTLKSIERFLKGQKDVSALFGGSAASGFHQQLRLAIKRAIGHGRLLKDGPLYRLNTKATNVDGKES
Sequence,E-score
AGACTATC,-0.0572
CGCCTTAG,0.172
AACACGGT,0.111
AAACCTCC,-0.247
AGTAACAA,-0.0617
GAGTTGAA,-0.118
AATGTCCT,-0.0409
CCCGCAGG,0.211
CACCATAA,-0.0312
AGATCTAG,-0.17
GAGATGGC,-0.0868
ACCCCATC,-0.134
CCTGACGC,0.0827
ATTCTAAA,-0.0329
GACACTAC,-0.0512
GCCGACGC,0.316
CATCTGAA,-0.0177
ACATCAGG,-0.196
AACTATTA,-0.0824
AACAAACA,-0.166
AGCAGAGC,-0.163
ACGTACGT,-0.141
CGACTTGA,-0.0912
CCATGCTA,-0.118
AATCTATA,-0.0311

# Study 5
# Target: Max-binding protein MNT, bHLH-zipper, MAX partner unstated (MNT, Homo sapiens, UniProt Q99583, residues 220-300)
# Technique: protein-binding microarray
# Molecule type: double-stranded DNA, one strand shown
# Medium: in vitro
# Concentration: not given
# Setting: k-mer, scored over probes, only values ≥0.25
# Direction: higher = stronger binding
# Target sequence (chain): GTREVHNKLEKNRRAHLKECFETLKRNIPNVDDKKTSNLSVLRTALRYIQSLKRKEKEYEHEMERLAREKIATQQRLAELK
Sequence,E-score
ATGCGCAG,0.289
ACGTGCCG,0.433
TCCACGCA,0.313
ACGACACG,0.33
CATGCCAG,0.276
ACGTTGCA,0.262
CACGCTTA,0.31
AGCCCACG,0.357
ACTCGTGA,0.316
CTCGTGAC,0.412
CATGCTAG,0.376
CCACCTGG,0.348
GGGGCGAA,0.291
ACATGCGC,0.421
ACATGACT,0.271
GCGCATGA,0.372
ACCAGGTG,0.262
AACCCCGC,0.253
GAGCACGC,0.434
ATGCGTTC,0.315
ATGCGGCC,0.265
CCACGCAG,0.276
CAACCACG,0.409
AGGCATGC,0.377

# Repeated from above (study 3):
Sequence,log fluorescence
GACGATCTCGGTCTCGAGACGTGCTAG,0.468 z-score
TTAGGTTTCCATTTCCTTTAGTGCTAG,8.27 z-score
GACGGACTGGGGACTTGGGACGTGCTA,-0.478 z-score
TTAGGTTTCGTTTCCCTTTAGTGCTAG,13.7 z-score
GACGGGATCGGGTATCGGGACGTGCTA,-0.168 z-score
TTAGGTATCGGGACTGGGTTAGTGCTA,-0.138 z-score
TTAGGTATCGGTATCGGTGAGTGCTAG,1.44 z-score
GACGGACTGGGGTATCGGCACGTGCTA,-0.952 z-score
TTTGATATCGGGTTTCGATTAGTGCTA,6.47 z-score
GACGATTTCAGTTTCGGGACGTGCTAG,3.87 z-score
GGTCTTCTGGACTGTTTGGTCGTGCTA,-0.244 z-score
TCATCTTTCCTCACCATACTGTGCTAG,1.97 z-score
TTAGGTATCCTTCTCTTTTAGTGCTAG,0.637 z-score
